# Measured values collected from several papers.
# Lines come from different studies, so protocols differ. Several values in a cell are separate wells, animals, samples, runs or records. ± marks the error that the study gave.
# Ugcg: Ceramide glucosyltransferase (Ugcg, Mus musculus, UniProt O88693)
# Sequence of UniProt O88693 (whole entry, looked up): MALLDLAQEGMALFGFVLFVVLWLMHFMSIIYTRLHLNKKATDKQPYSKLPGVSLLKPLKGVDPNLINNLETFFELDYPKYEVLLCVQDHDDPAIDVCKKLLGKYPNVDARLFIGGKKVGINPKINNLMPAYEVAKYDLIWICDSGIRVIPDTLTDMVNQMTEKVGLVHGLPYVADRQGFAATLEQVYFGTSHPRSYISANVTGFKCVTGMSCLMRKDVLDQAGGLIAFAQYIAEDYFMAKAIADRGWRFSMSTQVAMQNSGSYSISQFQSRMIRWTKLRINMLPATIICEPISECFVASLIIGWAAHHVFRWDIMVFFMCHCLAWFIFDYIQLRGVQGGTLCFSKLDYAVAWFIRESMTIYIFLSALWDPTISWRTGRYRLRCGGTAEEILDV
# Sequence of UniProt O14965 (whole entry, looked up): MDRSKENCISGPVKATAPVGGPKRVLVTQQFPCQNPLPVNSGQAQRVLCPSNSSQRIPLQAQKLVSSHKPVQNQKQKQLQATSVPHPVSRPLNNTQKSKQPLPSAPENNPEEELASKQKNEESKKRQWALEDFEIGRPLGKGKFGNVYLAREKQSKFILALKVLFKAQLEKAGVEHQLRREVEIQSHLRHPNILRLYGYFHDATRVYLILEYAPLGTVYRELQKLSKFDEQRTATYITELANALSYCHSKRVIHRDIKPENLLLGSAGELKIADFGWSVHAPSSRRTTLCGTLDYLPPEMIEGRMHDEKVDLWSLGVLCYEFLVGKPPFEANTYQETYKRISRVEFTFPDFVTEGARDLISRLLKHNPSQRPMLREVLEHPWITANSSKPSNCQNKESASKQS
Compound,target or system,test,system,conditions,how to read,endpoint,result
F[C@@H]1[C@H](c2ccc(-c3cnc(N4CCOCC4)nc3)cc2)[C@H](F)[C@H](F)C[C@@H]1F,,liver microsome stability,rat liver microsomes,1 µM,,hepatic clearance,31 mL/min/kg
O=C(Nc1cnccc1-c1ccc([18F])cc1)c1ccnc(NC(=O)C2CC2)c1,,"ex vivo biodistribution, gamma counting","GSK-3β overexpressing transgenic mouse, late stage, brain stem","intravenous, 120 min post-injection, added: tariquidar 15 mg/kg iv, at least 120 min before tracer",,mean SUV,0.24
O=C(N1CCCCC1)C12CC(c3ccccc3)(C1)C2(Cl)Cl,,metabolic stability,"human, liver microsomes","2 µM, 40 min, pH 7.4",,compound remaining,35%
C=C(NC(=O)c1csc(-c2nc3c(cc2O)-c2nc(cs2)C(=O)NC(C(C)O)C(=O)NC(=C(C)OC)c2nc(cs2)C(=O)NC2c4nc(cs4)C(=O)NC(COC(=O)c4c5c6c(cccc6n4O)COC(=O)C(OC4CC(C)(O)C(N(C)C)C(C)O4)C2OC5)c2nc-3cs2)n1)C(N)=O (centres unmarked),,,"ICR mice, Streptococcus pneumoniae ATCC 49169 infected, immunocompromised, blood","intravenous, 16 mg/kg twice daily",,AUC(0-t),0.861 µM·h
O=C1C2CC3CC1CC(C(=O)N1CCN(c4ccc([N+](=O)[O-])c5ncccc45)CC1)(C3)C2,Salmonella typhimurium,Ames test,TA97a,"0.05 µg/well, with S9",reference: vehicle,revertant fold increase,0.8
C/C(N)=N/C(=N\S(=O)(=O)c1ccc(C(F)(F)F)cc1)N1C[C@H](c2ccccc2)C(c2ccc(Cl)cc2)=N1,,,"beagle dog, plasma","oral, 12 mg/kg",,AUC(0-inf),21500 ng·h/mL
CC(C)C[C@H](NC(=O)[C@H](CCCN)NC(=O)CNC(=O)[C@@H](NC(=O)[C@H](C)NC(=O)[C@@H]1CSCSC[C@H](NC(=O)CC[C@H](N)C(=O)O)C(=O)N[C@@H](CC(N)=O)C(=O)N[C@@H]([C@@H](C)O)C(=O)N[C@@H](C)C(=O)N[C@@H]([C@@H](C)O)C(=O)N1)[C@@H](C)O)C(=O)N[C@@H](C)C(=O)N[C@@H](CCC(=O)O)C(=O)N[C@@](C)(Cc1ccccc1)C(=O)N[C@@H](CC(C)C)C(=O)N[C@H](C(=O)N[C@@H](CCCNC(=N)N)C(=O)N[C@@H](CO)C(=O)N[C@@H](CO)C(=O)N[C@@H](CC(N)=O)C(=O)N(C)[C@@H](CC(N)=O)C(=O)N[C@@H](Cc1ccccc1)C(=O)NCC(=O)N1CCC[C@H]1C(=O)N[C@@H](CCCCNC(=O)CC[C@H](NC(=O)CC[C@H](NC(=O)CCCCCCCCCCCCCCCCCCC(=O)O)C(=O)O)C(=O)O)C(=O)N[C@@H](CC(C)C)C(=O)N1CCC[C@H]1C(=O)N1CCC[C@H]1C(=O)N[C@H](C(=O)N[C@@H](CCC(=O)O)C(=O)N[C@H](C(=O)NCC(=O)N[C@@H](CO)C(=O)N[C@@H](CC(N)=O)C(=O)N[C@H](C(=O)N[C@@H](Cc1ccc(O)cc1)C(N)=O)[C@@H](C)O)C(C)C)[C@@H](C)O)C(C)C,,,"healthy human, plasma","subcutaneous, 0.4 mg",,AUC(0-inf),22800 ng·h/mL
[123I]c1ccc2nc(-c3ccc(-n4ccnn4)nc3)cn2c1,,,"male Wistar rat, pancreas","intravenous, 4 MBq, 30 min",,tracer uptake,0.276 %ID/g
O=C(CC(F)(F)F)Nc1ccc(C2CCCCC2)cc1,,liver microsome stability,dog liver microsomes,1 µM,,hepatic clearance,28 mL/min/kg
CNC(=O)C1CCCN(C(=O)C2CC3CCC2N3C(=O)[C@@H]2C[C@@H](O)CN2C(=O)NCc2cccc(Cl)c2F)C1 (mixture of isomers),CYP3A4 (human),"inhibitor, time-dependent inhibition",,"0.0686 µM, preincubated without NADPH, added: testosterone substrate",,6β-hydroxytestosterone formation,170 ng/mL
Nc1ncc(-c2ccc([C@H]3[C@@H](F)[C@@H](F)C[C@@H](F)[C@H]3F)cc2)cn1,,liver microsome stability,dog liver microsomes,1 µM,,hepatic clearance,8.9 mL/min/kg
O=C(Nc1cnccc1-c1ccc([18F])nc1)c1ccnc(NC(=O)C2CC2)c1,,,"FVB/NJ mouse, both sexes, liver","intravenous, 5 min",,SUV,7.51
Cc1cc(/C=C/C#N)cc(C)c1Oc1nc(NC2CCN(Cc3ccc(S(C)(=O)=O)cc3)CC2)nc2ncccc12,,,"Sprague-Dawley rat, plasma","intravenous, 2 mg/kg",,MRT(0-inf),1.25 h
Cc1nn(-c2cccc(N)c2)c(=O)c2cnc(Nc3ccc(N4CCNCC4)cc3)nc12,"Aurora kinase A (AURKA, Homo sapiens, UniProt O14965)",SelectScreen kinase,,,,IC50,> 10 µM
CCCCCCCCN1C[C@H](O)[C@@H](O)[C@H](O)[C@H]1CO,Ugcg,"enzyme activity, inhibitor, fluorescence",,,,IC50,4 µM
N#C[C@@H]1CC(F)(F)CN1C(=O)CNC(=O)c1ccnc2c(NC(=O)CCOCCOCCOCCOCCOCCOCCNC(=O)[C@H](CCCCNC(=O)CN3CCN(CC(=O)[O-])CCN(CC(=O)[O-])CCN(CC(=O)[O-])CC3)NC(=O)CCCc3ccc(I)cc3)cccc12.[177Lu+3],U-87 MG tumour model,,"host not given, bone","1 h, tumour-bearing",,tracer uptake,3.74 %ID/g
C=C1C[C@]2(C(=O)OC)C=C(C(=O)Nc3cccc(C(=O)Nc4ccc(Nc5nccc(-c6cccnc6)n5)c(C)c4)c3)C(=O)[C@H]1C2,,,"Wistar rat male, blood plasma","10 µM, 60 min",,compound remaining,0.99%
COc1ccccc1NC(=O)OC1C(C)C(OC)C=COC2(C)Oc3c(C)c(O)c4c(c3C2=O)C2=NC3(CCN(CC(C)C)CC3)NC2=C(NC(=O)C(C)=CC=CC(C)C(O)C(C)C(O)C1C)C4=O (centres unmarked),,,"CD-1 mouse female, plasma","oral, 10 mg/kg",,fAUC/MIC ratio,0.84
O=C(NS(=O)(=O)c1cccs1)c1cc2ccccc2n1Cc1ccc(Br)c2ccccc12,,,"Sprague-Dawley rat, male, plasma","oral, 20 mL/kg, 2 h",,plasma concentration,2250 ng/mL
OC[C@@H]1[C@@H](O)[C@H](O)[C@@H](O)CN1CCCCOCCC12CC3CC(CC(C3)C1)C2,Ugcg,"enzyme activity, inhibitor, fluorescence",,,,IC50,3.63 µM
c1cc(C2CCCCC2)ccc1-c1ccc(N2CCCC2)nc1,,liver microsome stability,cynomolgus liver microsomes,1 µM,,hepatic clearance,29 mL/min/kg
CCCCCCCOc1ccc(CC[C@](N)(CO)COP(=O)(O)O)cc1C(F)(F)F,,,"healthy men, plasma","oral, 0.5 mg once daily, day 21, fed state",,AUCτ,154 ng·h/mL
CN(C)c1cccc(-c2ccc(C3CCCCC3)cc2)c1,,liver microsome stability,rat liver microsomes,1 µM,,hepatic clearance,41 mL/min/kg
Cc1cc(-c2ccc(C(=O)[C@@H]3CCCC[C@H]3C(=O)Nc3cnn4c3C(=O)NCC4)cc2)[nH]n1,,,"human, urine","oral, 200 mg, mean of six subjects",reference: dose,recovery of radioactivity,5.9%
CCCC[C@H](NC(=O)CNC(=O)CNC(=O)[C@H](CCCCNC(=O)[C@H](CCN)NC(=O)C(C)c1ccc(CC(C)C)cc1)NC(=O)CN1CCN(CC(=O)O)CCN(CC(=O)O)CCN(CC(=O)O)CC1)C(=O)N[C@H]1CC(=O)NCCCC[C@@H](C(N)=O)NC(=O)[C@H](Cc2c[nH]c3ccccc23)NC(=O)[C@H](CCCNC(=N)N)NC(=O)[C@@H](Cc2ccccc2)NC(=O)[C@H](Cc2c[nH]cn2)NC1=O (some centres unmarked) [lutetium-177 labelled],,,"C57 mouse, urine",2 h,,urinary excretion,41 ± 5.38%
C=CC(=O)N1CCCC(n2c(=O)c3ncccc3n(Cc3ccc(Oc4ccccc4)cc3)c2=O)C1 (centres unmarked),,,"male BALB/c mouse, plasma","intraperitoneal, 200 mg/kg, 4 h",,concentration,2300 ng/mL
O=C(Nc1ccc([C@H]2[C@@H](F)[C@@H](F)C[C@@H](F)[C@H]2F)cc1)C1CC1,,liver microsome stability,human liver microsomes,"1 µM, without NADPH",,hepatic clearance,3.9 mL/min/kg
C=C[C@]1(C)C[C@@H](OC(=O)CSc2ccc(NC(=O)c3ccco3)cc2)[C@]2(C)[C@H](C)CC[C@]3(CCC(=O)[C@H]32)[C@@H](C)[C@@H]1O,,,"Mycoplasma gallisepticum-infected chickens, plasma","intramuscular, 5 mg/kg, 0.25 h",,plasma concentration,349 ng/mL and 575 ng/mL and 334 ng/mL and 1070 ng/mL and 1090 ng/mL and 601 ng/mL and 352 ng/mL and 679 ng/mL
CN(CC(F)(F)F)C(=O)CN1CN(c2ccccc2)C2(CCN(C(=O)c3ccc4[nH]ncc4c3)CC2)C1=O,,,mouse liver microsomes,,,CLint,340 µL/min/mg protein
CC1(C)CC[C@]2(NC(=O)C(C)(F)F)CC[C@]3(C)[C@H](C(=O)C=C4[C@@]5(C)C=C(C#N)C(=O)C(C)(C)[C@@H]5CC[C@]43C)[C@@H]2C1,,geometric least squares mean,"human, plasma","oral, dose not given, added: itraconazole",,AUC(0-inf),7130 ng·h/mL
Nc1ncc(-c2ccc(C3CCCCC3)cc2)cn1,,hepatocyte stability,cryopreserved mouse hepatocytes,1 µM,,hepatic clearance,70 mL/min/kg
CN(C(=O)C(C)(C)c1cc(C(F)(F)F)cc(C(F)(F)F)c1)c1cnc(N2C[C@H]3COC(O)CN3C[C@H]2CO)cc1-c1ccc(F)cc1CO (some centres unmarked),,,pooled human liver microsomes,"pH 7.4, substrate depletion",,pathway contribution to clearance,100%
CCN(CC)CC#CCNc1ccnc2cc(Cl)ccc12,Salmonella typhimurium,mini-Ames test,TA97a,"250.0 µg/well, with rat liver S9",,revertants,1 revertants/well
CN(C)C(=O)CNC(=O)c1ccc(C2CCCCC2)cc1,,liver microsome stability,rat liver microsomes,1 µM,,hepatic clearance,48 mL/min/kg
COc1cccc(OC)c1-c1cc(C(=O)NC2(C(=O)O)C3CC4CC(C3)CC2C4)nn1-c1ccc(C(=O)N(C)CCOCCOCCN(C)C(=O)[C@H](CCCCNC(=O)[C@H](CC(C)C)NC(=O)C2OC2C(=O)O)NC(=O)CN2CCN(CC(=O)[O-])CCN(CC(=O)[O-])CCN(CC(=O)[O-])CC2)cc1C(C)C.[177Lu+3] (mixture of isomers),,,"mouse, HT-29 xenograft","24 h post injection, biodistribution",reference: tumour over blood uptake,tumour-to-blood ratio,4.8

# Excerpt of the above:
Compound,target or system,test,system,conditions,how to read,endpoint,result
C=C[C@]1(C)C[C@@H](OC(=O)CSc2ccc(NC(=O)c3ccco3)cc2)[C@]2(C)[C@H](C)CC[C@]3(CCC(=O)[C@H]32)[C@@H](C)[C@@H]1O,,,"Mycoplasma gallisepticum-infected chickens, plasma","intramuscular, 5 mg/kg, 0.25 h",,plasma concentration,349 ng/mL and 575 ng/mL and 334 ng/mL and 1070 ng/mL and 1090 ng/mL and 601 ng/mL and 352 ng/mL and 679 ng/mL
CN(CC(F)(F)F)C(=O)CN1CN(c2ccccc2)C2(CCN(C(=O)c3ccc4[nH]ncc4c3)CC2)C1=O,,,mouse liver microsomes,,,CLint,340 µL/min/mg protein
CC1(C)CC[C@]2(NC(=O)C(C)(F)F)CC[C@]3(C)[C@H](C(=O)C=C4[C@@]5(C)C=C(C#N)C(=O)C(C)(C)[C@@H]5CC[C@]43C)[C@@H]2C1,,geometric least squares mean,"human, plasma","oral, dose not given, added: itraconazole",,AUC(0-inf),7130 ng·h/mL
